{"data": "Assay results from different studies", "note": "Each numbered part is a random draw from the data of one study; scales do not carry over between parts. Values joined by “and” are separate records of one study, mostly repeats; a detail may differ."}
{"data": "Sample 1", "cell line": "Huh-7", "concentration": "10 µM", "time": "24 h"}
{"SMILES": "Cc1ccc(/N=C/N(C)/C=N/c2ccc(C)cc2C)c(C)c1", "viability [%]": 92.3}
{"SMILES": "CN1C[C@H](C(=O)N[C@]2(C)O[C@@]3(O)[C@@H]4CCCN4C(=O)[C@H](Cc4ccccc4)N3C2=O)C=C2c3cccc4[nH]cc(c34)C[C@H]21", "viability [%]": 91.3}
{"SMILES": "C[N+]12CCC(CC1)C(OC(=O)C(O)(c1ccccc1)c1ccccc1)C2 (stereo not drawn)", "viability [%]": 103}
{"SMILES": "C[C@]12CCC(=O)C=C1C=C[C@@H]1[C@@H]2CC[C@@]2(C)[C@H]1CC[C@@]2(O)CCC(=O)O", "viability [%]": 101}
{"data": "Sample 2", "target": "Eukaryotic initiation factor 4A-III (Homo sapiens, UniProt P38919)", "observed": "RNA clamping", "technique": "fluorescence polarization", "concentration": "concentration not given", "added": "FAM-labelled poly r(AG)8 RNA", "chain of UniProt P38919 (whole entry, looked up)": "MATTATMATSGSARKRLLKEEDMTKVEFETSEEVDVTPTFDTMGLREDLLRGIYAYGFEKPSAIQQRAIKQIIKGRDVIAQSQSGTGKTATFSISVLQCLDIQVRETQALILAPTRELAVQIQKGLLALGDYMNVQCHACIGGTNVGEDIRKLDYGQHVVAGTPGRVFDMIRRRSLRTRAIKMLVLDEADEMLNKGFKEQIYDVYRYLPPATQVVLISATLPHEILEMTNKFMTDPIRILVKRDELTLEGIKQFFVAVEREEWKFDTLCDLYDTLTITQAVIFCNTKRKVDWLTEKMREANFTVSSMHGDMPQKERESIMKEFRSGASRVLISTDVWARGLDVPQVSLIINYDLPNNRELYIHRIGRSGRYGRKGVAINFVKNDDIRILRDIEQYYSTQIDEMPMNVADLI"}
{"Compound": "COC(=O)[C@H]1[C@@H](c2ccccc2)[C@]2(c3ccc(OC)cc3)Oc3cc(OC)cc(OC)c3[C@@]1(O)C2=O", "fluorescence polarization change": "4.1 mP"}
{"Compound": "COC(=O)[C@@H]1[C@@H](c2ccccc2)[C@@]2(c3ccc(OC)cc3)C(=O)[C@]1(O)c1ccccc1N2C", "fluorescence polarization change": "3.1 mP and -13.4 mP"}
{"Compound": "COC(=O)[C@H]1[C@H](c2ccccc2)[C@@]2(c3ccc(OC)cc3)Oc3cc(OC)cc(OC)c3[C@]1(O)[C@H]2O", "fluorescence polarization change": "-5.4 mP"}
{"data": "Other studies, line by line"}
{"SMILES": "COc1ccc(-c2c(Nc3ccccn3)[nH]c3c(C4=CCCCC4)c(-c4ccccc4)nn3c2=O)cc1", "system": "patients with advanced malignancies", "conditions": "oral, dose not given, treatment-emergent adverse events", "endpoint": "grade 3 liver injury incidence", "result": "5%"}
{"SMILES": "Cc1cccc(C(C)c2c[nH]cn2)c1C (stereo not drawn)", "tested on": "mouse MPNST tumor cells", "assay": "high-content immunofluorescence imaging, measured: nuclear SOX9", "conditions": "10 µM, 12 h, mean of 2 replicates", "scale": "relative to: DMSO control, higher = more nuclear SOX9", "endpoint": "nuclear SOX9 intensity", "result": "100 % of DMSO"}
{"note": "Excerpt of the above (sample 2):"}
{"Compound": "COC(=O)[C@H]1[C@@H](c2ccccc2)[C@]2(c3ccc(OC)cc3)Oc3cc(OC)cc(OC)c3[C@@]1(O)C2=O", "fluorescence polarization change": "4.1 mP"}
